Measurements from different studies.
A part holds a random share of what one study measured. Substitutions count along the parent as printed.

Set 1 — technique: RNA Bind-n-Seq; molecule type: RNA; medium: in vitro; tested at: not given; notes: RNA with constant flanks, ends assumed; baseline: input RNA pool; direction: higher = stronger binding
Target: RING finger protein unkempt homolog, zinc fingers 1-6, GST-SBP tag (UNK, Homo sapiens, UniProt Q9C0B0, residues 30-357)
Sequence of UniProt Q9C0B0 (30-357, looked up): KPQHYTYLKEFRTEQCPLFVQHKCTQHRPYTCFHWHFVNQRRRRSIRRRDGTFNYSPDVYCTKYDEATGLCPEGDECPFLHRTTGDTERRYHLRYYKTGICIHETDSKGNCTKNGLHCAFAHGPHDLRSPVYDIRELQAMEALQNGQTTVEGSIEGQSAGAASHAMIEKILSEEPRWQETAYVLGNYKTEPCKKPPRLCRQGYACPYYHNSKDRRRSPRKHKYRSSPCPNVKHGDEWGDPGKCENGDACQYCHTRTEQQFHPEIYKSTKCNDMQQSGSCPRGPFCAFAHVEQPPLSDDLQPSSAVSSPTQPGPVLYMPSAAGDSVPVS
`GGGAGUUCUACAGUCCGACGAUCUCCGCGGAAGUCCCCGAGGCAGCGUCUGCGGAGGAGCAAAAGGAAAUGGAAGAUAAAGUAACCCGUCCAGAGAAAGCUGAAGAAGCAAAGUUAAAGGCAAGGUAUCCUCACUUGGGACAACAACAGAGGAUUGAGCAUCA` gave a bound/input enrichment of 0.253 ratio.
With `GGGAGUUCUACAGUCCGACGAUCGGGGGCAAGGCCAAAAAGAAGAAGUGGUCCAAAGGCAAAGUUCGGGACAAGCUCAAUAACUCCGUCUUGUUUGACAAAGCUACCUAUGAUAAACUCUGUAAGGAAGUUCCCAACUAUAAACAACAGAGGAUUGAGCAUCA` the bound/input enrichment was 1.38 ratio.
The bound/input enrichment of `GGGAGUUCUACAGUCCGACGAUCCGUGGUGUUUCCUUUACUUUUGGAGCUGAUGUAGUCAGUAAAUUUCUGAAUCGUCAUGAUUCCGAUUUGAUUUGUCGAGCUCAUCAGGUGGUGGAAGAUGGAUAUGAAUUUUUUGCUAAACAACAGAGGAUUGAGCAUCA` is reported as 0.122 ratio.
For `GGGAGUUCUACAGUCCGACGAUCCUGAGCCAGCUAGACCAGCGCUUUUCAGAGAAUUACUCUACCCAUAGCAGUCCUCUGGACCGUAUUUAUUACCACCGAGAGCUUCUCUGCUAUUCUCUGGAUGGACUUCGUGUAGAUCUACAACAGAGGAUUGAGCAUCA`, the bound/input enrichment was 0.196 ratio.
For `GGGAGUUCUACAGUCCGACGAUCCCUGCAGCCGGGGGACGCUUCUGGGUUGGAGGACCUUCUGGAUGUAGCGUCGGUGGAACCUUCCGAUACUCUCCUCUGGAAAAGCCACCAUGAAUUCGGUAGCUGGGAAUAAAGAGAGGCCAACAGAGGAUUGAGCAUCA`, the bound/input enrichment was 0.169 ratio.
With `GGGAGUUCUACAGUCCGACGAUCGACUCUCAUGUCAUUUGUAUACCUGUGGAUCUGCCCUGUAUUGUUAAUUCUAUUUUACAAAACCGAGGAAGUGUCUAAUAUAUGUGCAUAGUCAGUUGUCCUUUUUGAAAAAUAGGUUGACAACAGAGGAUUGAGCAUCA` the bound/input enrichment was 0.345 ratio.
With `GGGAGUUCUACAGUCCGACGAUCAUUGCCCCGGCAUCUGUCUUUGCUGGGGACUUAAGCUACGCCAUUGCUGGGUUGGUAUUUUCCGAAUACAAAGCCAGUGCACAGUGGUCUGCAGAGCUCUUGGUCAUCAAUUACCGGGGACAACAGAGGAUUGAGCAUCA` the bound/input enrichment was 0.123 ratio.
With `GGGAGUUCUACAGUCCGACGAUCGUCAGAUUUGAAAAUGCAGAUUUAAAUGAUACAUCAAGAAAUCUGGAAUUUCAUGAAAUACACCGUACUGGGAAUGAACCGCCUUUGUUGAUUAUGAUUGGCUACAGUGAUGGAAUGCAGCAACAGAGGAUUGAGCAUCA` the bound/input enrichment was 0.457 ratio.
`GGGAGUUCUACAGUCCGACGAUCGCCAGAGGGGUUCUCAAGUGUGACAUUACAGAUCUCCAAAUCAUUUGCUCCUUGGGAUACCGCAUUCUUCUCAUGGUCACAUGUACUGUGUAUGCCAUCAAGACUCGGGGUGUACCCGAGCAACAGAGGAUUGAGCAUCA` gave a bound/input enrichment of 0.117 ratio.
`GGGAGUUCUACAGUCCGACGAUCAGAAAAAUCCAUCUCUCUGAAUUAAUGCUUGAGAAAUGCCCUUUUCCUGCUGGCUCAGAUUCCGCCCAAAAAUGGCAUUUGAUUAAACAGCAUACAGCUCCUGUGAGCCCACAUUCAACACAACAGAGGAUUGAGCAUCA` gave a bound/input enrichment of 0.189 ratio.
`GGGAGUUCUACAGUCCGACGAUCAUCACUCUAAUUAAUUGUAAUCUGAAUAAAGUGUAACAAUUGUGUAGCCUUUUUGUAUAAAACCGACAAAUAGAAAAUGGUCCAAUUAGUUUCCUUUUUAAUAUGCUUAAAAUAAGCAGGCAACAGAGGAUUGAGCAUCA` has a bound/input enrichment of 4.74 ratio.

Set 2 — target: CEBPE, bZIP domain (human); technique: DHFR protein complementation; medium: yeast; baseline: wild-type JUN-FOS pair; direction: higher = stronger binding
Notes: single substitutions, most at no-binding floor
Parent: JUN, bZIP domain (human); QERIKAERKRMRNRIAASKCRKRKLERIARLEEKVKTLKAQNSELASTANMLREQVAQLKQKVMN; partner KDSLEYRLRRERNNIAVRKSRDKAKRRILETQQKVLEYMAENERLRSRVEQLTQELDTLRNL
With `K34E` the binding fitness was -1.28 natural log.
The binding fitness of `L31K` is reported as -1.47 natural log.
`S43R` gave a binding fitness of -0.972 natural log.
For `Q55V`, the binding fitness was -1.37 natural log.
`Q58S` gave a binding fitness of -1.02 natural log.
With `R53Y` the binding fitness was -1.15 natural log.
`A29K` gave a binding fitness of -1.08 natural log.
The binding fitness of `E33G` is reported as -1.26 natural log.
The binding fitness of `Q41A` is reported as -1.13 natural log.
The binding fitness of `E44K` is reported as -1.3 natural log.
`S47C` has a binding fitness of -1.17 natural log.
`N42E` has a binding fitness of -1.51 natural log.
`R53H` has a binding fitness of -1.16 natural log.
`E33N` has a binding fitness of -1.29 natural log.
`A40K` gave a binding fitness of -1.06 natural log.
`I28S` has a binding fitness of -1.31 natural log.
The binding fitness of `A29C` is reported as -1.25 natural log.
The binding fitness of `E33F` is reported as -1.38 natural log.
`L31Q` has a binding fitness of -1.5 natural log.

Set 3 — technique: protein binding microarray; molecule type: double-stranded DNA, one strand shown; medium: in vitro; tested at: not given; baseline: not given; direction: higher = stronger binding
Target: Histone acetyltransferase KAT6A, winged helix 2, GST fusion (KAT6A, Homo sapiens, UniProt Q92794, residues 85-181)
Notes: 8-mer, flanks averaged, mean of 2 arrays, mostly near background
Target sequence (chain): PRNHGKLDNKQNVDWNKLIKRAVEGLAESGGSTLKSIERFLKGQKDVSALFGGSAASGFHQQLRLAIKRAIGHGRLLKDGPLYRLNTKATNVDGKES
`CCGATCTA` has an E-score of 0.0215.
`ATTCACGC` gave an E-score of -0.0794.
For `TAAGTTAA`, the E-score was 0.0501.
With `ACCAATAG` the E-score was -0.142.
`ACATCCAA` has an E-score of 0.0517.
The E-score of `CACTCTTC` is reported as -0.119.
With `GAGAGGTA` the E-score was -0.123.
`CCATCCTA` has an E-score of -0.0553.
The E-score of `ACACACGT` is reported as -0.22.
For `ATGCGGAA`, the E-score was 0.0327.
With `ATACATTG` the E-score was -0.103.
For `AGATTAGA`, the E-score was 0.044.
`ACCTATAA` gave an E-score of -0.182.
For `CCCATACG`, the E-score was -0.132.
`CAAAGGCA` has an E-score of 0.111.
With `CCCTCAGA` the E-score was -0.022.
`AATACCCG` has an E-score of -0.012.
`CGACAGTA` has an E-score of 0.063.
With `CTTGACAA` the E-score was 0.0158.
`GTTCCGCA` gave an E-score of 0.041.
`GGCTACTA` has an E-score of 0.0363.
The E-score of `AAATGATT` is reported as 0.0986.
With `AGACCAAC` the E-score was 0.00534.
`ATACTCAC` has an E-score of 0.0106.
The E-score of `CATGAACA` is reported as -0.0447.

Set 4 — technique: RNA Bind-n-Seq; molecule type: RNA; medium: in vitro; tested at: 365 nM; baseline: no-protein control; direction: higher = stronger binding
Target: RNA binding protein fox-1 homolog 2, RRM domain, GST-SBP tag (RBFOX2, Homo sapiens, UniProt O43251-10, residues 100-194)
Notes: natural RNA segment, single round, ends assumed
Target sequence (chain): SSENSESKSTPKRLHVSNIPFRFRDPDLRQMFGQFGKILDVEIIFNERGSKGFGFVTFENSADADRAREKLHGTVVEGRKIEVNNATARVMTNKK
Under “RBNS enrichment (R)”, `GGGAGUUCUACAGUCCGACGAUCAGCAGCAGCGCCCCCUGCUCUCCUGUGCCUCAGCCCUUCUUAUGUUCCCUGAUGUCACACCCCACUUCCCGUCUCCCUGCACCCUGGGGCUUGAGACUGGUGUCUGUUUCUGGAAUUCUCGGGUGCCAA` is recorded as 0.768.
Under “RBNS enrichment (R)”, `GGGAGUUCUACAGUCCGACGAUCUGAAAAGAGAGGAAAGAAUAUAACGUGAAAUGCUAGAUUUGACCUCCUCCCUGUUAUUUCCAAGUAGCUGGGAUUUUAAACUAGAUGACCUCAUUAACCAGUGCUUUACCUGGAAUUCUCGGGUGCCAA` is recorded as 0.403.
`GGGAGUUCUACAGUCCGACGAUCUUUUGAGGGGGAAGGUGGCGGGGUGGGAACCGUGUCAUUCCAGAGUGGAUCUGCGGUGAAGCCAAGCCGCAAGGUUACAAGGCAUCCUCACCAGGGGCCCCGCCUGCUGCUGGAAUUCUCGGGUGCCAA` — result for “RBNS enrichment (R)”: 0.659.
Under “RBNS enrichment (R)”, `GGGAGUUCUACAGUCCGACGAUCACUCCUGGUGCUUUGUACUACUGGUUCAGCGGCCUCGGGCUUCUUUUCUAUAUUAAUAAAGAAGAGUAAAAACUGUCAGUGAUGACACUGUUUAAUAUUGAUCUCACAAGUGGAAUUCUCGGGUGCCAA` is recorded as 0.283.
`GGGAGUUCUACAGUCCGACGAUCUGAUAGCAGAAUUGCAUUGUGUGAACUGUGUAACUUUAGUAAUGUAAAUCAAGGAACAUCAGUUAAGAGAUUUCCUAAUUUAUUUUUUAACUGAAUAAAUAUCAGUUAAAUGGAAUUCUCGGGUGCCAA`: “RBNS enrichment (R)” 0.689.
Under “RBNS enrichment (R)”, `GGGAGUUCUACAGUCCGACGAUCCCUUUAUCUUGGAUUUCUAAAGUUUUUCCCCAAUAUUGGGAAUGGUGAGGGUGGGGAUGAGAGACUCUCUGAACAAUUCUUGCAGAACCAGUGACAAUCUUAUGAAUAUAUGGAAUUCUCGGGUGCCAA` is recorded as 0.384.
For `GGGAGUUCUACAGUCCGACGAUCACCUGCGGGGAAGAAACUCAGACUUUCUAUUUUUGAUAUUUUGUGCAUUAAUACAUUACAAACAUGAAGAUGUUUGUAAAGUUUUGUUUUAGUCAUUUUCUUUGCAGUCAUGGAAUUCUCGGGUGCCAA`, “RBNS enrichment (R)” read 0.618.
For `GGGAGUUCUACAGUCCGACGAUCAUACGUUAUUUUGCCUCUAAACUUUUAUUGAAGUUUUAUUUGGCAGGAAAAAAAAUUGAAUCUUGGUCAACAUUUAAACCAAAGUAAAAGGGGAAAAACCAAAGUUAUUUUGGAAUUCUCGGGUGCCAA`, “RBNS enrichment (R)” read 0.728.
For `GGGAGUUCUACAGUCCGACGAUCGAUACCAUGGGCAUGUGCUGAGUGGAUGCACCAGGGGGCAGCACAGCUCCAUGAUUCCCAGUGGGGCCCAAGCCAGGCCAAGGUGCAGUCAGUUAAUAGCAUUGGGACAGUGGAAUUCUCGGGUGCCAA`, “RBNS enrichment (R)” read 1.54.
For `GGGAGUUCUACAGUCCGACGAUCCCGUCUCUGUCCAUGCACCUCGAUUCACGGCGAGACAUUUAGCCACCACUCUCUGCGUAUUGAUGGCAUGAUACGGUAUUGUCCUCGUAUAGAGUUAACAACUUACGAUAUGGAAUUCUCGGGUGCCAA`, “RBNS enrichment (R)” read 0.471.
For `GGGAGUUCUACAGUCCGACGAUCUAUAAGAUUUGAGGUCAGCCAUCUUCAAAAAAGAAAAAAAAAUUGACUCAAGAAAGUACAAGUAAACUAUACACCUUUUUUUCAUAAGUUUUAGGAACUGUAGUAAUGUGUGGAAUUCUCGGGUGCCAA`, “RBNS enrichment (R)” read 0.531.
`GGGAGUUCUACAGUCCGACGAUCUUUACUUGUUCAAAAAAAACAGUAAGAUCUCCCAAUUUGUUCUUUAUCCUGCACUUAAACUGAGUUUAAACUCUUUCAGCAGAUCUCCCUUCGUGGUAUCUUCACAGAUCUGGAAUUCUCGGGUGCCAA` — result for “RBNS enrichment (R)”: 0.521.

A few entries again (set 3):
`AATACCCG` has an E-score of -0.012.
With `AGACCAAC` the E-score was 0.00534.
`ATTCACGC` gave an E-score of -0.0794.
`CAAAGGCA` has an E-score of 0.111.
For `CCCATACG`, the E-score was -0.132.
